Measurements from different studies.
Lines come from different studies, so protocols differ. Numbers after ± are the reported error.
Organism: Escherichia coli

NC[C@H]1O[C@H](O[C@H]2[C@H](O)[C@@H](O[C@H]3O[C@H](CO)[C@@H](O)[C@H](N)[C@H]3O)[C@H](N)C[C@@H]2N)[C@H](O)[C@@H](O)[C@@H]1O.O=S(=O)(O)O
MIC (broth microdilution; ATCC 25922, LB medium; 16 to 20 h, 37 °C): 6.25 µg/mL

CCN(CC)c1ccc(C=NNC(=O)c2ccncc2)c(O)c1
MIC (microbial growth, broth dilution; ATCC25922): > 256 µg/mL

CC(C)C1NC(=O)C(C(=O)NC(C(=O)NC2C(=O)N3C2SC(C)(C)C3C(=O)O)c2ccccc2)=C1O (stereo not shown)
MIC (broth microdilution; BW25113, Mueller-Hinton broth; added: 2,2'-bipyridyl 30 µg/mL): 50 µg/mL

gentamicin
MIC (broth microdilution; K12; 18 h, pH 7): 0.5 µg/mL

RWQWRWQWR
MIC (broth microdilution; peptide, ATCC 25922; 24 h, 37 °C): 17 µM

CN(C)c1cc(NC(=O)CNC(C)(C)C)c(O)c2c1C[C@H]1C[C@H]3[C@H](N(C)C)C(O)=C(C(N)=O)C(=O)[C@@]3(O)C(O)=C1C2=O
MIC (CLSI broth dilution; ATCC 25922): 0.13 µg/mL

CCn1cc(C(=O)O)c(=O)c2ccc(C)nc21
MIC (broth microdilution; ATCC 25922; 16 to 20 h, 37 °C): 3.12 to 6.25 µg/mL

seco-Arg10-teixobactin
MIC (ATCC 10798): > 32 µg/mL

CCc1cc(=O)c2c(OCC(O)CN3CCCCC3)c3ccoc3c(OC)c2o1 (stereo not shown)
MIC (microbial growth, broth dilution; ATCC25; 19 h): > 256 µg/mL

CC[C@H](C)[C@H](NC(=O)[C@H](CCCNC(=N)N)NC(=O)CNC(=O)[C@H](CC(C)C)NC(=O)[C@H](Cc1ccccc1)NC(=O)[C@H](CCCCN)NC(=O)[C@H](CO)NC(=O)[C@H](Cc1ccccc1)NC(=O)[C@H](Cc1c[nH]c2ccccc12)NC(=O)[C@H](CCC(N)=O)NC(=O)[C@@H](NC(=O)[C@@H](N)Cc1ccccc1)C(C)C)C(=O)N[C@@H](CC(C)C)C(N)=O
MIC (broth microdilution; ATCC 25922, LB medium; 16 to 20 h, 37 °C): > 100 µg/mL

Clc1ccc(C=Nc2ncn[nH]2)cc1
MIC (microbial growth, broth dilution; ATCC25922): > 256 µg/mL

CCOC(=O)c1c(N)csc1-c1cn(-c2ccccc2)nc1-c1ccc(C)cc1
MIC (broth microdilution; clinical urinary isolate; compound gamma-irradiated 20 kGy): 0.123 ± 0.3 µg/mL

Oc1ccc(C=Nc2ncn[nH]2)cc1
MIC (microbial growth, broth dilution; ATCC25922): > 256 µg/mL

CCN(CC)c1ccc(C=NNC(=O)c2ccccn2)c(O)c1
MIC (microbial growth, broth dilution; ATCC25922): > 256 µg/mL

CCc1cc(=O)c2c(O)c3ccoc3c(OC)c2o1
MIC (microbial growth, broth dilution; ATCC25; 19 h): > 256 µg/mL

CC1(C)S[C@@H]2[C@H](NC(=O)[C@H](N)c3ccccc3)C(=O)N2[C@H]1C(=O)O
MIC (microbial growth, broth dilution; ATCC25922): 6.25 to 12.5 µg/mL

CC(C)CC1NC(=O)C(C(=O)NC(C(=O)NC2C(=O)N3C2SC(C)(C)C3C(=O)O)c2ccccc2)=C1O (stereo not shown)
MIC (broth microdilution; BW25113, Mueller-Hinton broth; 18 h, without clavulanic acid): 50 µg/mL

CC[C@@H](C)[C@@H](NC(=O)[C@@H](Cc1c[nH]c2ccccc12)NC(=O)[C@H](N)CCCNC(=N)N)C(=O)N[C@H](CCCNC(=N)N)C(=O)N[C@H](Cc1c[nH]c2ccccc12)C(=O)N[C@@H](C(=O)N[C@H](Cc1c[nH]c2ccccc12)C(=O)N[C@H](CCCNC(=N)N)C(=O)N[C@H](CCCCN)C(=O)N[C@H](CCCCN)C(=O)N[C@H](CC(C)C)C(=O)N[C@H](CCCNC(=N)N)C(N)=O)C(C)C
MIC (ATCC 25922; 1 h, 37 °C, dividing cells in LB): 12.5 µg/mL

O=C(O)c1cn(C2CC2)c2cc(N3CCNCC3)c(F)cc2c1=O
MIC (microbial growth, broth dilution; ATCC25; 19 h): 0.003 µg/mL

CNC(C)C1CCC(N)C(OC2C(N)CC(N)C(OC3OCC(C)(O)C(NC)C3O)C2O)O1 (stereo not shown)
MIC (broth microdilution; ATCC 25922; 16 to 20 h, 37 °C): 3.12 to 6.25 µg/mL

O=[N+]([O-])c1ccc(C=Nc2ncn[nH]2)cc1
MIC (microbial growth, broth dilution; ATCC25922): 64 µg/mL

CC1(C)S[C@@H]2[C@H](NC(=O)C(C(=O)O)c3ccccc3)C(=O)N2[C@H]1C(=O)O (stereo partly shown)
MIC (broth microdilution; BW25113, Mueller-Hinton broth; added: 2,2'-bipyridyl 30 µg/mL): 6.25 µg/mL

C(=Nc1ncn[nH]1)c1ccncc1
MIC (microbial growth, broth dilution; ATCC25922): > 256 µg/mL

CCN(CC)c1ccc(C=Nc2cc(C)ccc2O)c(O)c1
MIC (microbial growth, broth dilution; ATCC25922): > 256 µg/mL

CC1NC(=O)C(C(=O)NC(C(=O)NC2C(=O)N3C2SC(C)(C)C3C(=O)O)c2ccccc2)=C1O (stereo not shown)
MIC (broth microdilution; BW25113, Mueller-Hinton broth; 18 h, without clavulanic acid): 200 µg/mL
